Measurements from different studies.
Parts stem from different laboratories: compare values within a part only. Positions count from the first letter of the parent shown.

Sample 1 — method: protein-binding microarray; form: double-stranded DNA, one strand shown; medium: in vitro; concentration: 2540 nM top; notes: 60-bp whole probe; together with: salmon DNA 0.4 mg/ml; reference: random background probes; reading: higher = stronger binding; shared flanks, not repeated: GCCTAGCAC … GTCTTGATTCGCTTGACGCTGCTG
Target: Interferon regulatory factor 3, full length, phosphomimetic (IRF3, Homo sapiens, UniProt Q14653, residues 1-427, S386D/S396D/S398D/S402D/T404D/S405D)
Target sequence (chain): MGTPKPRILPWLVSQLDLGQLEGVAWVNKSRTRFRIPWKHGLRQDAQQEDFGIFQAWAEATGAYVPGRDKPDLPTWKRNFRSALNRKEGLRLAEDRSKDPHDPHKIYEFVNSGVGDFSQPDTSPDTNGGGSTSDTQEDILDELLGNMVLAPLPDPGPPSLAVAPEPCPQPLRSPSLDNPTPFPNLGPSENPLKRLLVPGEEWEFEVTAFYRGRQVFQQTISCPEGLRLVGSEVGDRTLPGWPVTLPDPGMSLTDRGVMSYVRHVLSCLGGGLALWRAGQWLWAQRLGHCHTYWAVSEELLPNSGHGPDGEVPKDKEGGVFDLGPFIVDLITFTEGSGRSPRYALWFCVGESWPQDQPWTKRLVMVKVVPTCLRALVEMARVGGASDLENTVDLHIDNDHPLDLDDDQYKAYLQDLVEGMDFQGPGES
Oligonucleotide	fitted relative affinity [z-score]
TTAGATATCAGTATCGGTTAGTGCTAG	2.91
GACGGACTGCGACTGCTGACGTGCTAG	-0.893
GATGATATCAGACTGGAGACGTGCTAG	-0.181
TTAGGTTCCCTTATCCTTTAGTGCTAG	4.44
TTAGGTTTCGAGTTTCGGTTAGTGCTA	5.43
TTAGGTATCCTTATCCTTTGGTGCTAG	5.2
GACGATCTCAGTTTCGAGGCGTGCTAG	2.13
TTAGGTCTCCTCCTGCTTTAGTGCTAG	0.042
CTAGGTCTCGGTCTCGGTTAGTGCTAG	1.11
TCAATAATTTTTTTCTAACTGTGCTAG	0.121
TTTTCTTTTCATTACTGCATGTGCTAG	6.29
GACGAAATGGGGACTGGAGACGTGCTA	-0.377
GTAGGACTGGGGACTGGGTTAGTGCTA	-1.29
TCACGTATCTTCATTGTACTGTGCTAG	0.0971
TTAAATATCAGTATCGATTAGTGCTAG	2.17
TATGTTCACTATTTAAGAACGTGCTAG	1.39
GACGATTTCAGTTTGGAGACGTGCTAG	2.05
GACGGACTGCTATTCCTGACGTGCTAG	-0.329
TTAGGTCTCGGAATCGGTTAGTGCTAG	1.01
TCATATCTGGGTTCCCCACTGTGCTAG	0.856
TCATTTTTTTTTTTCTGACTGTGCTAG	1.44
ATATGTAAGATATCCATATGGTGCTAG	0.936
ATTGCTTTCTCTTTCACTGCGTGCTAG	3.77
GTGGTTCTGCTTCTTAGCGCGTGCTAG	0.601
GAAGATATCAGTATCGAGACGTGCTAG	1.13

Sample 2 — target: CCNA2, cyclin fold, Cln2 fusion (human); method: yeast growth competition, sequencing; medium: yeast; notes: weak parent motif; reference: not given; reading: higher = stronger binding
Starting sequence: DNAH7 docking peptide (human); HELFQRLDFDNDG
Substitution	normalised enrichment score
HELFQRLDFANDG [D10A]	-0.0717
HELFQALDFDNDG [R6A]	-0.204
HALFQRLDFDNDG [E2A]	0.682
HELFQRLDFDADG [N11A]	-0.157
HELFQRADFDNDG [L7A]	-0.519
HELFQRLDADNDG [F9A]	-0.526

Sample 3 — method: RNA Bind-n-Seq; form: RNA; medium: in vitro; concentration: 365 nM; reference: no-protein control; reading: higher = stronger binding
Target: RNA binding protein fox-1 homolog 2, RRM domain, GST-SBP tag (RBFOX2, Homo sapiens, UniProt O43251-10, residues 100-194)
Notes: natural RNA segment, single round, ends assumed
Shared flanks, not repeated: GGGAGUUCUACAGUCCGACGAUC … UGGAAUUCUCGGGUGCCAA
Target sequence (chain): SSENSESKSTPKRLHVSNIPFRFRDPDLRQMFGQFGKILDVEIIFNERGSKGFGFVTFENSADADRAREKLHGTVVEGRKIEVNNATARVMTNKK
Oligonucleotide	RBNS enrichment (R)
UUCGGGUGAAAUGGCAAGUUGUACAGCCCCCUCGGGCUUGUUUUGUGCUCUCCUGUCACAAAUGCUGCACUGUUGAUUCUUUCAAAACAAAACGAAACAAACCUCUCCAG	0.513
CUAAUUCUGCCCCUGUUGGUGCAGAUGGCUGUGGGCGGCUCACUUGACCUUUUAGAGUCUGCAUACCCACCUGUAUAACAAGGUGGAUUGAAUGAGACAAUGCCCACGAA	0.27
CUGUUGUCUGGUUUUGAAAAACAAUUAUCUUGUUUUGCAAAUUGUGGAAUGAUGUAAGCAAAUGCUUUUGGUUACUGGUACAUGUGUUUUUUCCUAGCUGACCUUUUAUA	0.55
GGCCCUGCCCAACUUCAGGCAGAACAGGGAGGCCCAGAGAUUACAGAUCCCCUCCUGUAAGUGGCCAGGCAUUCUCUCCCUGCCCUCUCUGGCCUCUGGGGUCAUACUCA	0.222
ACACUCCGUGUGACUGUAACAUUUCUUCAAGGAAAGUAUAGCGUCUAUGGAGUGCAGAGGGCAUGUGUUUGGGGAAAAAUAUACAUGACAUAAAGAUGACGACGAAGAAG	1.82
UCUAGCCAAAACAAAUUGCCAGUAUGGUUGAGGAAUUGAAUAUCAGAUGGCAUGCAGUCUCCCCUCCCCUCCCCUAUCAAGGACAGUAGAAGCUGCAAACCUCUUCUCAG	0.996
UGACUCUGCUUGAGAGGUGGCACUUGUCGAACAGCCUGGCACCUGGUAUCCAGGCUCCAACGACCUCAUGCAGGACUCAGACCUGACCCACUGAAUCCCGAGGAGAGGCU	0.782
UAACCUGUUUUUAUUAGAUCAGCGAAGACAGUCAUGCAUCGCUUAAUGAUGGGGAUGCAUUCUGAGAAAUGUGUCAUUAGGCUGUUUUGUUGCUGUGCCAACAUCCUAGA	0.585
GCCCUACAGAGGUCUCUGCCGGCUCUUUCCUUGCUCAACCAUGGCUGAAGGAAACCAGUGCAACAGCACUGGCUCUCUCCAGGAUCCAGAAGGGGUUUGGUCUGGGACUU	0.264
CCGAGGCUGCAGCUCAGGGCAACGGCAGGCCAGGUCGUGGGUCUCCAGCCGUGCUUGGCCUCAGGGCUGGCAGCCGGAUCCUGGGGCAACCCAUCUGGUCUCUUGAAUAA	1.3
UGUCUGGGACCCCUUUCUGUGCAUGGGUGCAAUGAUUUAGCCAUGGCUGUGGGCUAUCUGGGUACAAUGAUUUAGCCGUGGCUGUGGGCUAUCUGGGUGCAAUGAUUUAG	14
UAGUGGCUAGGGGUAUGUGGGACUGCGGCACUGGACUGGGUGCUUCAUGGUGGGCCCUGUGCUCUGUUAAUGAGUCCCUGGCAUGGAUGGAUGAAUACCUGAGUCACCAG	2.64

Sample 4 — method: DHFR PCA, deep sequencing; medium: yeast; together with: (+)-ABA 17 µM; reference: wild-type fitted maximum; reading: higher = stronger binding
Target: ABI1, truncated, D143A, DHFR fusion (Arabidopsis thaliana)
Notes: methotrexate growth selection, single substitutions
Starting sequence: PYL1, truncated, DHFR fusion (Arabidopsis thaliana); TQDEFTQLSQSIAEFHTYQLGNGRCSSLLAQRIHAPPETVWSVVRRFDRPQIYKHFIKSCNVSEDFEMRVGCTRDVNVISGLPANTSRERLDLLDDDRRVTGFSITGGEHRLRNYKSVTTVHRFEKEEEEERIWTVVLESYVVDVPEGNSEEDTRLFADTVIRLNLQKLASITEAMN; partner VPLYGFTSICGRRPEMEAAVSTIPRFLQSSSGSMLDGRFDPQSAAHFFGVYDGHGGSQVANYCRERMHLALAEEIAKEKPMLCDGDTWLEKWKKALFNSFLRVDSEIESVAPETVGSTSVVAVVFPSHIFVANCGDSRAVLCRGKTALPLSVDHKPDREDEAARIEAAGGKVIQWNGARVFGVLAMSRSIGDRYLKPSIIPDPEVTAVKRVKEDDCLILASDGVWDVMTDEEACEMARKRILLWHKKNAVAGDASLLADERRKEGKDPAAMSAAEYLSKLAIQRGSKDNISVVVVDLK
Substitution	relative binding score [%]
R88Y	83
D153A	5
I57Y	15.3
Q51D	75.3
R163M	53.7
N22M	82.6
Q167V	65.8
A158G	26.2
S27R	43.6
E152I	66.2
D96H	17
L29V	83.7
V136F	70.5
T173E	-10.1
L164F	85.2
D97M	80.1
R98F	33.1
Y141F	40.9
T106H	57.9

Sample 5 — target: UBE2G1 UBC core domain (UniProt P62253); method: yeast two-hybrid; medium: yeast; notes: mostly zero background; reference: not given; reading: higher = stronger interaction
Sequence of UniProt P62253 (whole entry, looked up): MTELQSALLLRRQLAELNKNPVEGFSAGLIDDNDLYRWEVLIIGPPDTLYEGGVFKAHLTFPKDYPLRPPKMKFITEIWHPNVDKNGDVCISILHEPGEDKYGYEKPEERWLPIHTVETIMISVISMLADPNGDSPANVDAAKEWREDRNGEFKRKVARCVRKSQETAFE
B1: RNF133 RING domain (UniProt Q8WVZ7); chain DEEINPNGDSCVICFERYKPNDIVRILTCKHFFHKNCIDPWILPHGTCPICKCDILKVLGIQ
B2: RNF121 RING domain (UniProt Q9H920); chain MPTKHLSDSVCAVCGQQIFVDVSEEGIIENTYRLSCNHVFHEFCIRGWCIVGKKQTCPYCKEKVDLKRMFS
B3: ZMIZ2 RING domain (UniProt Q8NF64); chain GTIPGTPGPNGEDGVEQTAIKVSLKCPITFRRIQLPARGHDCRHIQCFDLESYLQLNCERGTWRCPVCNKTALLEGLEVDQYMLGILIYIQNSDYEEITIDPTCSWK
B4: UBOX5 RING domain (UniProt O94941); chain EQPGSILGPECASCKRVFSPYFKKEPVYQLPCGHLLCRPCLGEKQRSLPMTCTACQRPVASQDVLR
B5: MAP3K1 RING domain (UniProt Q13233); chain NSIKDEEEQMCPICLLGMLDEESLTVCEDGCRNKLHHHCMSIWAEECRRNREPLICPLCRSKWRSHDFYS
B6: RNF19A RING domain (UniProt Q9NV58); chain ISKQIGDFIECPLCLLRHSKDRFPDIMTCHHRSCVDCLRQYLRIEISESRVNISCPECTERFNPHDIR
Sequence	lacZ reporter activity
B1 (RNF133 RING domain)	0
GSDDEEIPFKCFICRQSFQNPVVTKCRHYFCESCALQHFRTTPRCYVCDQQTNGVFNPA (RNF113A RING domain (UniProt O15541))	0
B2 (RNF121 RING domain)	0
B3 (ZMIZ2 RING domain)	0
B4 (UBOX5 RING domain)	0
B5 (MAP3K1 RING domain)	0
B6 (RNF19A RING domain)	0
AMYLQENGIDCPKCKFSYALARGGCMHFHCTQCRHQFCSGCYNAFYAKNKC (RNF31 RING domain (UniProt Q96EP0))	0
KETIKKTTKPCPRCHVPVEKNGGCMHMKCPQPQCRLEWCWNCGCEWNRVCMG (PRKN RING domain (UniProt O60260))	0
FDGDVDPDLKCALCHKVLEDPLTTPCGHVFCAGCVLPWVVQEGSCPARCRGRLSAKELN (PDZRN3 RING domain (UniProt Q9UPQ7))	0
YQNEVDDDLVCHICLQPLLQPLDTPCGHTFCYKCLRNFLQEKDFCPLDRKRLHFKLCKK (LNX2 RING domain (UniProt Q8N448))	0

Some of these lines once more (sample 5):
Sequence	lacZ reporter activity
B2 (RNF121 RING domain)	0
B3 (ZMIZ2 RING domain)	0
B4 (UBOX5 RING domain)	0
B5 (MAP3K1 RING domain)	0
B6 (RNF19A RING domain)	0
AMYLQENGIDCPKCKFSYALARGGCMHFHCTQCRHQFCSGCYNAFYAKNKC (RNF31 RING domain (UniProt Q96EP0))	0
KETIKKTTKPCPRCHVPVEKNGGCMHMKCPQPQCRLEWCWNCGCEWNRVCMG (PRKN RING domain (UniProt O60260))	0
